Measured values from different studies.
Numbered parts are unrelated; each lists some results of a single study.

Series 1
Target: Interferon regulatory factor 7, full length, phosphomimetic (IRF7, Homo sapiens, UniProt Q92985, residues 1-503, S471D/S472D/S475D/S476D/S477D/S483D/S484D/S487D)
Sequence of UniProt Q92985 (whole entry, unmodified, looked up): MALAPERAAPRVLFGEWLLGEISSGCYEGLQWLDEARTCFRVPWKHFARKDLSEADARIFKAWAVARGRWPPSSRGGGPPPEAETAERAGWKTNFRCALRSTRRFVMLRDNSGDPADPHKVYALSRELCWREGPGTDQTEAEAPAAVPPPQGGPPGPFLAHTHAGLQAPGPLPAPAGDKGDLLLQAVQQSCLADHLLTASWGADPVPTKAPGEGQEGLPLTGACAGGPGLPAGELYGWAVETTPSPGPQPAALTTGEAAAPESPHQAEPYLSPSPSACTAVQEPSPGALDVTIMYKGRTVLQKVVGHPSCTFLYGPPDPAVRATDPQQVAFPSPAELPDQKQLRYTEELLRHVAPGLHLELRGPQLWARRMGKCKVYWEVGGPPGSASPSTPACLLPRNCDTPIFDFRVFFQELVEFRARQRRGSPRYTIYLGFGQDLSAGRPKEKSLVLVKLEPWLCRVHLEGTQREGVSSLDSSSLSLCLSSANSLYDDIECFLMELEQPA
Method: protein-binding microarray
Form: double-stranded DNA, one strand shown
Sample: in vitro
Tested at: 2200 nM top
Notes: 60-bp whole probe
Added: salmon DNA 0.4 mg/ml
Reference: random background probes
Reading: higher = stronger binding
Constant ends, left off below: GCCTAGCAC … GTCTTGATTCGCTTGACGCTGCTG
Sequence | fitted relative affinity [z-score]
TTAGGACTGCTTATCCCTTAGTGCTAG | 0.48
TTAGGTATCGGACTGTGTTAGTGCTAG | 0.266
TTAGGTTTCAACTTTCGGTTAGTGCTA | 7.64
TACTTTCTGAATGCTCCCCCTGTGCTA | 5.98
GACGGTTCCGGTTACGGGACGTGCTAG | 1.07
GAGGGTATCGGTTTCGGGACGTGCTAG | 3.68
TTTTTTTTTTTTTTTACTTCGTGCTAG | 2.38
GACGGTATCGGGGTTCGGGACGTGCTA | -0.258
GACGGTTTCTGACTGGGGACGTGCTAG | 1.53
GACGATGTCGGGACTGGAGACGTGCTA | -0.524
GACGATTTCAGTTCCAAGACGTGCTAG | 1.53
GACGGTCTCCTACGGCTGACGTGCTAG | -0.176
GACGTTTCCCTTTTCCTGACGTGCTAG | 4.45
CACTGCATCTGATTTCTCAAAGTGCTA | 0.864
TCAAGTTCAGTTCTCTAACTGTGCTAG | 0.699
GACGGTTTCGGGATTCGGGACGTGCTA | 5.89
ATAAACTTAGTTTTCAATTTGTGCTAG | 1.16
GCCGGTTTCGGTCTCGGGACGTGCTAG | 8.1
TTAGGTCTCCTTCACCTTTAGTGCTAG | 0.888
GGTCTTTCCGATTAGTCCCCGTGCTAG | 3.67
GACGATTCCAGTTACGAGACGTGCTAG | 0.9
GACGGTTTCGGGTTTCGGGAGGTGCTA | 9.52
TTAGGTTCCCTTTTCCCTTAGTGCTAG | 3.16
TTAGGTTTCGGTCTCGGATAGTGCTAG | 6.2
TTAGGTTTCGGTTTCTGTTAGTGCTAG | 14.3

Series 2
Target: RNA binding protein fox-1 homolog 2, RRM domain, GST-SBP tag (RBFOX2, Homo sapiens, UniProt O43251-10, residues 100-194)
Method: RNA Bind-n-Seq
Form: RNA
Sample: in vitro
Tested at: 365 nM
Notes: natural RNA segment, single round, ends assumed
Reference: no-protein control
Reading: higher = stronger binding
Constant ends, left off below: GGGAGUUCUACAGUCCGACGAUC … UGGAAUUCUCGGGUGCCAA
Construct (chain): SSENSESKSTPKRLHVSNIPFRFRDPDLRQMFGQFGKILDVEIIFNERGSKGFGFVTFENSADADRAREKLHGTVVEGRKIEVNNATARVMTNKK
Sequence | RBNS enrichment (R)
AAUUACCCUCUCCUUUAUAAGAGCUUUCCUCUUUUAUCUUUUACCUGUAGAGACCUGAAAAUCCCACUUGUUUACCCUAGAAUUCAGUGGCAUUUACUGCUUCUUGAUCU | 0.626
GACUGAAUUAUGUGACUUUAAAGGAUGUAACUGCCCAACAUUUGCAGAUUCUGGGUGGUCUAUGUGACCAUUUGUCUCGUAUCCAAAAACCCCGGGGCUAUUGGAACCCU | 0.367
CCUGAGGCCCAGUGGCAGCCUCUGUCACAGGGUCCCAGAGCCUGAGCUGAGGCGUCACCCUUAAAGCCACCCACCUUGAGACCUAUCCUUGCUCCCUCCUUCCCUCCUGU | 0.411
UUCAAGUGACUGUGGCUCCUUUCUCUCCCUGGCCCCUAGUUUCUCCAUCUCCCAGACCAAGGGGGCGAGGGGGUUGAGUGGAGUCUUCCCUUCAAAGCAGGGAAGAAUAC | 0.412
CCCCGCCUUGGAAGGGCACACUGGGGAGGGGAAUGUCUCCACCAUUGAUAGCAUAGACUGGUCACCCUGGACGUGCUUCAAGGUACUGUUCCCACUGAGCCUGUGCUUGC | 0.549
AGAGUUUGUUAUUGAAAUAGAUGUUGCCCAUGAAGAAUUCUCCUUCCUGGAUUGACUCUUAAUCAUCAGGCAUCAUUCCUGGUUUGCUUCUCUACGAAUCUCAAUUCCAA | 0.443
ACCAGGAAGGCUGUGUGGGUCUGGAGCCCACGUCCCACCUCCACACCCUUGGCUUGGGCCCAUGCCCAGCGCAGGCCUGAAGACCACCCUCCCGAGAGGAACCAGCCCGG | 0.324
GGCUGGGACAGGCUUUGAUUUUGAGGGUUAGCAAGACAAAGCAAAUAAAUGCCUUCCACCUCACCGCAAACCUUCUGCUAAAUUGCAUGACCAGGCUUUCCAAAAACAAG | 1.44
UGAUGCUUCCUUCCAGUUCCUGGUGAAAGCUGCUCAUGCAGUGUGGUUUUCUUUGCUUUAGCUCGAGAAAGCGGCAGCAAACAGAAUACAGAAUGAAUGGAGACUGGGUU | 0.436
CCAGACGUGAGACAAACAAGGACUUUUUUUUUUAUAUAGAGCCAUCCAUAAAAUCCUAAGCCCUUUUAUUAAUGUAUAACCAGGAGAACAUCUGUGCCAACGGUUGGACU | 0.501
CAUUAUAACAUUUGCUGUUUUAAAAUUUUUGCUAUUUUUUCACAAACUGAUAUUCAAAAUAUUAAACAUUUGUUAUUUUGUAUAAACCUUUAAGUAAAAAUAUGCUGUUU | 0.639
UGUUGAUGCAUGGGCCUCAGUCACAGAGGAGCUGGGUGCCCAGUACCCUUGGGUGCAGGUCUUUGAAAACAAAGGUGCCAUGAUGGGCUGUUCUAACCCCCACCCCCACU | 0.318

Series 3
Target: Histone acetyltransferase KAT6A, both winged helices, GST fusion (KAT6A, Homo sapiens, UniProt Q92794, residues 1-181)
Method: protein binding microarray
Form: double-stranded DNA, one strand shown
Sample: in vitro
Tested at: not given
Notes: 8-mer, flanks averaged, mean of 2 arrays, mostly near background
Reference: not given
Reading: higher = stronger binding
Residues (chain): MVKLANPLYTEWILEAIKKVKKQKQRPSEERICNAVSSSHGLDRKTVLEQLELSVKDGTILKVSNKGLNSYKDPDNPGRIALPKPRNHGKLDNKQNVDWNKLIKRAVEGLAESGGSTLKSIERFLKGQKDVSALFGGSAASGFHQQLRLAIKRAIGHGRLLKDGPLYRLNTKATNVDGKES
Sequence | E-score
AATACTAG | -0.0929
GAATCATC | 0.0432
GTGTGAAA | -0.0275
CCGTATAG | 0.15
CTCTGATC | -0.0602
GTATGCCA | -0.221
CAGTGAGC | 0.0711
GCGCTACA | 0.239
ATGTGGGA | -0.125
ACTCCAGT | -0.223
CTTTGGGC | -0.0435
CACCCCCG | 0.0587
CCCCGTAA | 0.0344
ATAGATGG | -0.143
AAACGGTA | 0.217
CGTTCCCC | 0.1
AAAAAGTT | -0.188
ATCTTGAA | -0.0316
CATAGGTA | -0.219
AGCAACAT | 0.00956
AGCTTATA | -0.0275
CTACCGTC | 0.168
ACCGATCG | 0.14
GGCATCAC | 0.0813
TCAAGTCA | -0.212

Series 4
Target: Sal-like protein 4, full length isoform A (SALL4, Homo sapiens, UniProt Q9UJQ4, residues 1-1053)
Sequence of UniProt Q9UJQ4 (whole entry, looked up): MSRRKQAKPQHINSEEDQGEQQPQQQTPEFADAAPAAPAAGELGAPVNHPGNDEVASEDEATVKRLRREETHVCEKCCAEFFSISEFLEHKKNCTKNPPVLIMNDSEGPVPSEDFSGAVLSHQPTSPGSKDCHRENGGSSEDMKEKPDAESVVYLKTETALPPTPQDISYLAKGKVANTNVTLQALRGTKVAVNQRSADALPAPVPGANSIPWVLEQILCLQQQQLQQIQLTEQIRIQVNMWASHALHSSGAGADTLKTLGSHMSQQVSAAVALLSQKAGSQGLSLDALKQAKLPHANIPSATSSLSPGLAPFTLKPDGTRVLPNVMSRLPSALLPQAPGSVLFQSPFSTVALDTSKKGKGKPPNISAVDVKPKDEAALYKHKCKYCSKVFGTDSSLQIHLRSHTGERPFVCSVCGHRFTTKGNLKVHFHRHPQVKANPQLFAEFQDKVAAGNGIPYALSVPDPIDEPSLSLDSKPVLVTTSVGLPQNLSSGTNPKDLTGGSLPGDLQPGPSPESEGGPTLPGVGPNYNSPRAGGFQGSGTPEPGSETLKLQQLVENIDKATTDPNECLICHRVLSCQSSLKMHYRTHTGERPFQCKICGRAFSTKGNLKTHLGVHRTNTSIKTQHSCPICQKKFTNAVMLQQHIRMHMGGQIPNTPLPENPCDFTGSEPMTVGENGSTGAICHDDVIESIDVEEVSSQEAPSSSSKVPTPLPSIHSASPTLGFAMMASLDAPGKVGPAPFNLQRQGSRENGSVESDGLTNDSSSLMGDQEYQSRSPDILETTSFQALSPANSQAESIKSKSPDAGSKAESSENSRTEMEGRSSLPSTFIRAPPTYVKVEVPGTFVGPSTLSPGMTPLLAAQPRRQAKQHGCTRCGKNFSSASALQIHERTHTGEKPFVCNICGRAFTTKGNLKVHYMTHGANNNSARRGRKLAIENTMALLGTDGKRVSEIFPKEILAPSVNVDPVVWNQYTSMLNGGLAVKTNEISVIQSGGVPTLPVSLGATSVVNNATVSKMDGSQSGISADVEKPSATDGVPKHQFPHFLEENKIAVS
Method: universal PBM
Form: double-stranded DNA, one strand shown
Sample: in vitro
Tested at: 600 nM
Notes: 8-mer, flanks averaged, mean of replicates
Reading: higher = stronger binding
Sequence | E-score
GCCCTTGA | -0.147
ATTTGGTA | 0.219
AAGCGCAA | -0.0308
CTTCCTGC | -0.198
AAATTGGA | 0.315
AAGGCTCA | -0.0646
GATTCGTA | 0.091
CACCTAGC | -0.229
ACCGGTCT | -0.235
GAGACTAC | -0.126
AATCAATA | 0.352
GAGCACCA | -0.102
GAACAGGC | -0.118
CGAAAAGA | 0.0851
GCAGAGAA | -0.0141
TCGTAAGA | -0.0332
GGCGGGCA | -0.198
AATTCCGA | 0.0959
AAGTAGGG | 0.0802
ACTGATAG | 0.0636
AAAAGTTC | 0.223

Repeated from above (series 2):
Sequence | RBNS enrichment (R)
UGAUGCUUCCUUCCAGUUCCUGGUGAAAGCUGCUCAUGCAGUGUGGUUUUCUUUGCUUUAGCUCGAGAAAGCGGCAGCAAACAGAAUACAGAAUGAAUGGAGACUGGGUU | 0.436
ACCAGGAAGGCUGUGUGGGUCUGGAGCCCACGUCCCACCUCCACACCCUUGGCUUGGGCCCAUGCCCAGCGCAGGCCUGAAGACCACCCUCCCGAGAGGAACCAGCCCGG | 0.324
CCAGACGUGAGACAAACAAGGACUUUUUUUUUUAUAUAGAGCCAUCCAUAAAAUCCUAAGCCCUUUUAUUAAUGUAUAACCAGGAGAACAUCUGUGCCAACGGUUGGACU | 0.501
AAUUACCCUCUCCUUUAUAAGAGCUUUCCUCUUUUAUCUUUUACCUGUAGAGACCUGAAAAUCCCACUUGUUUACCCUAGAAUUCAGUGGCAUUUACUGCUUCUUGAUCU | 0.626
UUCAAGUGACUGUGGCUCCUUUCUCUCCCUGGCCCCUAGUUUCUCCAUCUCCCAGACCAAGGGGGCGAGGGGGUUGAGUGGAGUCUUCCCUUCAAAGCAGGGAAGAAUAC | 0.412
GGCUGGGACAGGCUUUGAUUUUGAGGGUUAGCAAGACAAAGCAAAUAAAUGCCUUCCACCUCACCGCAAACCUUCUGCUAAAUUGCAUGACCAGGCUUUCCAAAAACAAG | 1.44
CCCCGCCUUGGAAGGGCACACUGGGGAGGGGAAUGUCUCCACCAUUGAUAGCAUAGACUGGUCACCCUGGACGUGCUUCAAGGUACUGUUCCCACUGAGCCUGUGCUUGC | 0.549
UGUUGAUGCAUGGGCCUCAGUCACAGAGGAGCUGGGUGCCCAGUACCCUUGGGUGCAGGUCUUUGAAAACAAAGGUGCCAUGAUGGGCUGUUCUAACCCCCACCCCCACU | 0.318
CAUUAUAACAUUUGCUGUUUUAAAAUUUUUGCUAUUUUUUCACAAACUGAUAUUCAAAAUAUUAAACAUUUGUUAUUUUGUAUAAACCUUUAAGUAAAAAUAUGCUGUUU | 0.639
GACUGAAUUAUGUGACUUUAAAGGAUGUAACUGCCCAACAUUUGCAGAUUCUGGGUGGUCUAUGUGACCAUUUGUCUCGUAUCCAAAAACCCCGGGGCUAUUGGAACCCU | 0.367
CCUGAGGCCCAGUGGCAGCCUCUGUCACAGGGUCCCAGAGCCUGAGCUGAGGCGUCACCCUUAAAGCCACCCACCUUGAGACCUAUCCUUGCUCCCUCCUUCCCUCCUGU | 0.411
